Measured values from different studies.
Compare with care: the assays were run in different laboratories.
Histone acetyltransferase RTT109 with Vps75: Histone acetyltransferase RTT109, with Vps75 (Saccharomyces cerevisiae, UniProt Q07794)
Sequence of UniProt Q07794 (whole entry, looked up): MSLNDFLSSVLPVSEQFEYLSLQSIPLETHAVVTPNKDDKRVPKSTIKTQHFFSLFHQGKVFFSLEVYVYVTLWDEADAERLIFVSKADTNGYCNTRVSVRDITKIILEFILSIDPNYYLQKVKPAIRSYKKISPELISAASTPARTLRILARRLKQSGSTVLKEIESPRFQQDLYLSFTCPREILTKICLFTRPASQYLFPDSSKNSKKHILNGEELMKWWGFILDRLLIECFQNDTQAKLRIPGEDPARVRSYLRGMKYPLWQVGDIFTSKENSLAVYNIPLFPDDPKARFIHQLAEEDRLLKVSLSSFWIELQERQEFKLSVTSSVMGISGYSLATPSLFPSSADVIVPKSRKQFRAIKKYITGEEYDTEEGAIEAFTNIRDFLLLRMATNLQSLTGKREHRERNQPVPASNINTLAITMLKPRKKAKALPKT
Sequence of UniProt P09936 (whole entry, looked up): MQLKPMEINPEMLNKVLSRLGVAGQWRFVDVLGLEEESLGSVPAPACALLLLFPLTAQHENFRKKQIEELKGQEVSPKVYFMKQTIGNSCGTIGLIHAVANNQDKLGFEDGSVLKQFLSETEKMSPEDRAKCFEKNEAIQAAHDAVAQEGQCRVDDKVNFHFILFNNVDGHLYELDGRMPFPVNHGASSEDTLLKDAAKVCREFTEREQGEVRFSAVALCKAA
Sequence of UniProt P10632 (whole entry, looked up): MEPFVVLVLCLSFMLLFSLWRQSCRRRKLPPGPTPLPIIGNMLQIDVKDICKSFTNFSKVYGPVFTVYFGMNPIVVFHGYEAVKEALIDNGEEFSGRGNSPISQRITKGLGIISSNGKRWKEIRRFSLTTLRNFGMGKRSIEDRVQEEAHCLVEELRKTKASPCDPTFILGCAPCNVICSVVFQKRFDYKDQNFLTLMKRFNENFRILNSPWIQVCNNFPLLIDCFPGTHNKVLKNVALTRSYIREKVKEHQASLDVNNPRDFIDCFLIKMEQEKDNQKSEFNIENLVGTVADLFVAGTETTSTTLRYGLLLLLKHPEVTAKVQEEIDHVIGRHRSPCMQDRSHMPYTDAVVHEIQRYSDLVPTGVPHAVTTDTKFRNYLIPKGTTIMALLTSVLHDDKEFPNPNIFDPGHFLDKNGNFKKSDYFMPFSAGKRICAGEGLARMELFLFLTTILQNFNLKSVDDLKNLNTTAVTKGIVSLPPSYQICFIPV
Sequence of UniProt Q9NRM7 (whole entry, looked up): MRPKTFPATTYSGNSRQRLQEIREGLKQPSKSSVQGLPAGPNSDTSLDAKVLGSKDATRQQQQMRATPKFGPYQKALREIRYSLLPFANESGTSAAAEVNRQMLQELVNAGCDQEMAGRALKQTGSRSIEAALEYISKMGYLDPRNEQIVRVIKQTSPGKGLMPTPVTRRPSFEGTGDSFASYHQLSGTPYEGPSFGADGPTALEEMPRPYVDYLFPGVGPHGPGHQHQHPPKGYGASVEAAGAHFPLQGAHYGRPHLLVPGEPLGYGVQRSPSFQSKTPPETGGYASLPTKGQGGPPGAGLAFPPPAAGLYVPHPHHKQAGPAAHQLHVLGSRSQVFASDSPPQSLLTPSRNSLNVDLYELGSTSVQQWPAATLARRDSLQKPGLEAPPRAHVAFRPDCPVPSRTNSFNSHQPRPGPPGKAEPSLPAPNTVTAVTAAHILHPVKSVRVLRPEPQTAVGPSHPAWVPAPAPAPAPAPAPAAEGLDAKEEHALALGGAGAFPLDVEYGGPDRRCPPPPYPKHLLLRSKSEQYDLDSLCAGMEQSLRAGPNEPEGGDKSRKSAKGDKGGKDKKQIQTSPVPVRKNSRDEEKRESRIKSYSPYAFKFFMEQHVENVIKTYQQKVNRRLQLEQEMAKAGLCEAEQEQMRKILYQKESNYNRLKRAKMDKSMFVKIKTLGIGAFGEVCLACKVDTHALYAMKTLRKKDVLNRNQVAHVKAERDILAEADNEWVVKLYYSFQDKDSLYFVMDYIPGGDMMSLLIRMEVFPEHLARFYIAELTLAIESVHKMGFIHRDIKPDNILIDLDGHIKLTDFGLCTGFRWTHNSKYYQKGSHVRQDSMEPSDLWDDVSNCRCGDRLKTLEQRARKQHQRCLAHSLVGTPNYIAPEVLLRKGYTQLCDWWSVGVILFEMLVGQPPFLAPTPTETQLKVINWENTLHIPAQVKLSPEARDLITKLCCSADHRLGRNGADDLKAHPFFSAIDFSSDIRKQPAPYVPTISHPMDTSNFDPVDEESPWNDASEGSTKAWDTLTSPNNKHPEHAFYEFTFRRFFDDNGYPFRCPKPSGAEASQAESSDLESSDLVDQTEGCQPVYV
Sequence of UniProt P07948 (whole entry, looked up): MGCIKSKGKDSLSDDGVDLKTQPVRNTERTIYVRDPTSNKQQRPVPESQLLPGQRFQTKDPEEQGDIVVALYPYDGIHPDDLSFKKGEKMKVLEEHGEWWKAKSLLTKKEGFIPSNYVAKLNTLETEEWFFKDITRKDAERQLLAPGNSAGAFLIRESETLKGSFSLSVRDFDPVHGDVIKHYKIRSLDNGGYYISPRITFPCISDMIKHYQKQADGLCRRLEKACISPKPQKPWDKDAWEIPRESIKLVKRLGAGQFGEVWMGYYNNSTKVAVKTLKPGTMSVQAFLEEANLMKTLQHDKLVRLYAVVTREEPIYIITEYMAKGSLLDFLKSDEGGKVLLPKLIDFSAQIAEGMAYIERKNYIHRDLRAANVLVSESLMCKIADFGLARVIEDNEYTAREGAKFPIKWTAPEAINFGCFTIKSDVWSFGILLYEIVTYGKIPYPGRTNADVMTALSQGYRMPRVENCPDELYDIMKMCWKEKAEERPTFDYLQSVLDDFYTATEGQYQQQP

SMILES = CC[C@@](O)(c1cnc(C(F)(F)F)c(Cl)c1)c1c2cnn(C3CC3)c(=O)c2nn1C; target = Dihydroorotate dehydrogenase (Canis lupus familiaris, UniProt A0A8I3MWX2); assay = enzyme activity, inhibitor, DCIP reduction; IC50 = > 30 µM
SMILES = O=C1C[C@@H](c2ccc(O[C@@H]3O[C@H](CO)[C@@H](O)[C@H](O)[C@H]3O)cc2)Oc2cc(O)ccc21; target = serine/threonine phosphatase Stp1 (Staphylococcus aureus, UniProt A0A0H2XF73); assay = phosphatase activity, inhibitor; IC50 = > 239 µM
SMILES = Cc1ccc(SC2=CS(=O)(=O)c3ccccc32)cc1; target = Histone acetyltransferase RTT109 with Vps75; assay = enzyme activity, inhibitor, HTS, CPM-based, dose response; IC50 = > 125 µM
SMILES = Cc1cnc(-c2ccc(-c3ccc(NC(=O)Nc4c(F)cc(F)cc4F)cc3F)c3c2C(=O)NC3)[nH]1; target = Tyrosine-protein kinase Lyn, isoform B (LYN, Homo sapiens, UniProt P07948); assay = enzyme activity, inhibitor, mobility shift; setting = with: ATP 1 mM; IC50 = 0.0169 µM
SMILES = COc1c(Cl)cc(Cl)cc1C=C(C#N)C(N)=O; target = UCHL1 (Homo sapiens, UniProt P09936); assay = inhibitor, ubiquitin-rhodamine cleavage; setting = 2 h preincubation; IC50 = > 200 µM
SMILES = N=C(N/N=C/c1ccccc1)SC1CC(=O)N(c2ccc(Br)cc2)C1=O (stereo not shown); target = Histone acetyltransferase RTT109 with Vps75; assay = enzyme activity, inhibitor, HTS, CPM-based, dose response; IC50 = > 125 µM
SMILES = N[C@@H]1C[C@]1(F)c1ccc(C(F)(F)F)cc1 (relative stereo); target = tyramine oxidase (Arthrobacter sp.); assay = enzyme activity, inhibitor, spectrophotometric benzylamine oxidation; setting = 10 min preincubation, pH 7.2, 25 °C, with: benzylamine 0.6 mM substrate; IC50 = 3.6 µM
SMILES = CC[C@@H]1[C@H](F)C(=O)N[C@@H]1COc1nccc2cc(C(N)=O)c(OC)cc12; target = LATS2 (Homo sapiens, UniProt Q9NRM7); assay = ATP-site probe binding, ActivX profiling; system = THP-1 cell lysate; setting = Lys2 site; IC50 = 0.88 µM
SMILES = O=C1CC(N2CCN(c3ncccn3)CC2)C(=O)N1c1cc(Cl)cc(Cl)c1 (stereo not shown); target = Histone acetyltransferase RTT109 with Vps75; assay = enzyme activity, inhibitor, HTS, CPM-based, dose response; IC50 = > 125 µM
SMILES = CSc1ccccc1C(=O)NCCn1cc(C(=O)NCc2cccc(C)n2)c(=O)c2cc3c(cc21)OCO3; target = Cytochrome P450 2C8 (CYP2C8, Homo sapiens, UniProt P10632); assay = enzyme activity, inhibitor; system = human liver microsomes; setting = 20 min, 30 min NADPH preincubation, with: amodiaquine 2 µM; IC50 = > 100 µM
